Experimental data gathered from unrelated publications.
Each line is one published result; not all experiments were run side by side. ± gives the spread as reported.
HDAC6 ZnF-UBD domain: Protein deacetylase HDAC6, ZnF-UBD domain (HDAC6, Homo sapiens, UniProt Q9UBN7)
UniProt Q9UBN7, sequence (whole entry, looked up): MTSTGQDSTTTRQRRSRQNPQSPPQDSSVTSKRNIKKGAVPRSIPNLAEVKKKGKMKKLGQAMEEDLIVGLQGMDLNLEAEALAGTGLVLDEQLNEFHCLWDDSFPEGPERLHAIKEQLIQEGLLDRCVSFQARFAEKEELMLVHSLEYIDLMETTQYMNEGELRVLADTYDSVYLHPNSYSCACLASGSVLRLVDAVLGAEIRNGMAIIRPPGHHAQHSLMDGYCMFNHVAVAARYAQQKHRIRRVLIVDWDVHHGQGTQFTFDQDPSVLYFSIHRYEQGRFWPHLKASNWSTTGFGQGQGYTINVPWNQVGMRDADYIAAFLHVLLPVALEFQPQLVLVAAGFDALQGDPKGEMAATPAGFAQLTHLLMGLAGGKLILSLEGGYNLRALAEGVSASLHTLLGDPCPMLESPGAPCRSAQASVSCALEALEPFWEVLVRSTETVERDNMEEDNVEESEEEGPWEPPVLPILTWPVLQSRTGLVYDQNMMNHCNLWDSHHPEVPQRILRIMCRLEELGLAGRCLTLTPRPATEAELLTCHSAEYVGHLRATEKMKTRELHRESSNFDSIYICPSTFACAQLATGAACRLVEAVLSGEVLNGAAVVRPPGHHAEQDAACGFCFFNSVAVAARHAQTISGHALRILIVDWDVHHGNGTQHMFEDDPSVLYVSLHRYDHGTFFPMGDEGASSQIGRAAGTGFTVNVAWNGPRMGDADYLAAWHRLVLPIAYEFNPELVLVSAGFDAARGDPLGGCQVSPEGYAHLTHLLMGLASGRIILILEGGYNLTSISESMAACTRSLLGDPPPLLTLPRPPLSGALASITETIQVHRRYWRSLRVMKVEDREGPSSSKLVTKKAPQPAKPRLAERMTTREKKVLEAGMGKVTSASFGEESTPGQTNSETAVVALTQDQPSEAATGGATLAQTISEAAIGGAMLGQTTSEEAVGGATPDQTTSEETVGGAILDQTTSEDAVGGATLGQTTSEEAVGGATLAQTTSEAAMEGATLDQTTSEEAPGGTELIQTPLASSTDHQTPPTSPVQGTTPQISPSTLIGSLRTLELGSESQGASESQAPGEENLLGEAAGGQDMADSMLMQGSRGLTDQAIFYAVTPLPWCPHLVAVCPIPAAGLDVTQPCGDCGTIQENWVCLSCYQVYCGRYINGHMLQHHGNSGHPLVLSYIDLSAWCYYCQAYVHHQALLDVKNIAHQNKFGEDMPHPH
UniProt P50613, sequence (whole entry, looked up): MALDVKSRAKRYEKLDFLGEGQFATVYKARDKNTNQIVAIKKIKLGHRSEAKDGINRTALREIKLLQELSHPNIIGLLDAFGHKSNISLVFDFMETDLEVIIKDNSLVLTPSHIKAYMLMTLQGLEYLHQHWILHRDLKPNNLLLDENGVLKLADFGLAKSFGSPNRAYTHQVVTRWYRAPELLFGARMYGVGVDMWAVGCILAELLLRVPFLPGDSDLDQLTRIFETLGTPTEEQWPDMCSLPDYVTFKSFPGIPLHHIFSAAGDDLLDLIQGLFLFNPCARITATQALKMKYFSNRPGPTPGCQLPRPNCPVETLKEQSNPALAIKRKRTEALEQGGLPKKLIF

With `O=C(O)CCC(=O)Nc1cccc2ccccc12` the Kd was 199 µM (HDAC6 ZnF-UBD domain).
Under “change from baseline”, `N#Cc1ccc2c(c1)[C@H]1CCCN(C(=O)c3ccc4[nH]cnc4c3)[C@H]1C2` is recorded as -57.1 mg/dL (refers to: Triglycerides; human; 240 mg once daily, day 28, adjusted mean).
`CN[C@@H]1COc2c(S(=O)(=O)NC(=O)Nc3c4c(cc5c3CCC5)CCC4)cnn2C1` gave an inhibition of 102% (refers to: IL-18; human participants, whole blood ex vivo; 900 mg twice daily, multiple doses, 145 h, IL-18, circulating, adjusted for, added: LPS/ATP; reference: baseline).
`N#Cc1ccc2c(-c3ccncc3)c(-c3ccc(F)cc3)nn2c1`: “log2 fold change” 0.0765 (kinase binding, competitor, MIB/MS competition, refers to: IRE1; Candida albicans cell lysate; 1 µM; reference: DMSO).
`C[C@H]1C[C@H]2CSC(N)=N[C@@]2(c2nc(NC(=O)c3ccc(OC(F)F)cn3)cs2)CO1` — result for “total plasma Aβ change”: -49.1% (healthy adults, fed, plasma; oral, 200 mg single dose, 6 h; reference: baseline, placebo-adjusted).
For `CC[C@@H]1[C@H](F)C(=O)N[C@@H]1COc1nccc2cc(C(N)=O)c(OC)cc12`, the inhibition was -0.9% (CDK7 (Homo sapiens, UniProt P50613); ATP-site probe binding, ActivX profiling; THP-1 cell lysate; 0.04 mM, Lys1 site).
The plasma concentration of `CC(C)[C@H](NC(=O)[C@H](Cc1ccc(O)cc1)NC(=O)[C@H](Cc1ccc(O)cc1)NC(=O)[C@@H]1CCCN1C(=O)[C@H](CCC(=O)O)NC(=O)[C@H](CCC(=O)O)NC(=O)[C@H](Cc1c[nH]c2ccccc12)NC(=O)[C@@H]1CCCN1C(=O)[C@@H](NC(=O)[C@H](CCC(N)=O)NC(=O)c1ccc2c(c1)C(=O)OC21c2ccc(O)cc2Oc2cc(O)ccc21)C(C)C)C(=O)N[C@H](C(=O)N[C@@H](CCCCN)C(=O)N[C@@H](CCCCN)C(=O)N[C@@H](CO)C(=O)N[C@@H](CO)C(=O)NCC(=O)NCC(N)=O)C(C)C` is reported as 6990 ng/mL (human, plasma; intravenous infusion, 200 mg, 0.25 h).
For `C[C@H](Oc1ccc(Br)cc1-c1ccon1)C(=O)O`, “effect difference vs placebo” read 0.043 mV (refers to: CMAP amplitude; human, tibialis anterior muscle; 1200 mg single dose, 3.5 h post-dose; reference: placebo).
`NC(=O)c1cnc2[nH]ccc2c1N[C@@H]1[C@@H]2CC3C[C@H]1C[C@@](O)(C3)C2`: “change from baseline” 1.37% (flow cytometry, refers to: CD8+ memory T cells; Japanese healthy subjects, peripheral blood; oral, 30 mg twice daily, day 7).
Under “EEG Beta2-power Pz-O1”, `OC(CCN1CCCCC1)(c1ccccc1)C1CC2C=CC1C2` (stereo not shown) is recorded as 1 µV² (resting-state EEG; healthy elderly humans; oral, 4 mg, eyes closed, LS mean).
`Cn1cc(-c2ccc(-c3cncc(Cl)c3N3CCC4(CCNC4=O)CC3)cc2)cn1`: “log2 fold change” 3.77 (COLO 205; gene expression, microarray, refers to: ABCC3 mRNA; concentration not given, 6 h; reference: untreated cells).
`O=C(O)CNC(=O)Cc1ccccc1` has a sarcomere length of 1.65 µm (ventricular cardiomyocytes, C57BL/6 mouse; dose not given, 0.248 s).
With `CC(C)[C@H](C(=O)Nc1ccc(C(=O)NO)cc1)c1ccccc1` the tumour volume was 2.4 cm3 (volumetric MRI; human, left foramen magnum tumour; dose not given, day 373).
`CCCCCCCCCC1NCCc2cc(O)c(O)cc21` (stereo not shown) gave a Fe2+ chelation of 28.4 ± 1.31% (ferrozine; cell-free; 100 µM, DMSO solvent).
For `Cc1nn(-c2nc3c(F)cc(F)cc3s2)c(O)c1C(c1ccc(C(F)(F)F)cc1)c1c(C)nn(-c2nc3c(F)cc(F)cc3s2)c1O`, the histology score was 0 (refers to: fat necrosis; mouse, cerulein-induced acute pancreatitis; 25 mg/kg; direction not given).
`CN(C(=O)n1cnc(-c2ccc[n+]([O-])c2)c1)C1CCCCC1`: “change in licking score” -86% (mice, formalin paw test; 3 mg/kg, late phase, added: anandamide 5 mg/kg i.p.; reference: anandamide alone, direction not given).
For `c1ccc(-c2n[nH]cc2-c2ccnc3ccccc23)nc1`, “log2 fold change” read 1.16 (kinase binding, competitor, MIB/MS competition, refers to: SCH9; Candida albicans cell lysate; 1 µM; reference: DMSO).
`c1coc(-c2n[nH]cc2-c2ccnc3ccccc23)c1` — result for “log2 fold change”: -0.18 (CDC15 (Candida albicans); kinase binding, MIB/MS competition; Candida albicans lysate; 1 µM; reference: DMSO).
`COc1cc2cc(-c3ccc(CC(=O)Nc4cc(C(C)(C)C(F)(F)F)no4)cn3)cnc2cc1OC`: “stable disease as best response” 71% (human RET-mutant medullary thyroid cancer; 75 mg, phase I, RECIST 1.1).
Under “log2 fold change”, `Oc1ccccc1-c1n[nH]cc1-c1ccnc2ccccc12` is recorded as 0.26 (CDC15 (Candida albicans); kinase binding, MIB/MS competition; Candida albicans lysate; 1 µM; reference: DMSO).
For `CC(C)NCC(O)c1ccc(O)c(O)c1` (stereo not shown), the sarcomere length was 1.51 µm (ventricular cardiomyocytes, C57BL/6 mouse; dose not given, 0.22 s).
`O=C(O)CCc1nc2ccccc2c2nc(Cc3ccccc3)nn12` gave a Kd of 187 µM (HDAC6 ZnF-UBD domain).

Repeated from above:
`C[C@H]1C[C@H]2CSC(N)=N[C@@]2(c2nc(NC(=O)c3ccc(OC(F)F)cn3)cs2)CO1` — result for “total plasma Aβ change”: -49.1% (healthy adults, fed, plasma; oral, 200 mg single dose, 6 h; reference: baseline, placebo-adjusted).
With `CC(C)[C@H](C(=O)Nc1ccc(C(=O)NO)cc1)c1ccccc1` the tumour volume was 2.4 cm3 (volumetric MRI; human, left foramen magnum tumour; dose not given, day 373).
`COc1cc2cc(-c3ccc(CC(=O)Nc4cc(C(C)(C)C(F)(F)F)no4)cn3)cnc2cc1OC`: “stable disease as best response” 71% (human RET-mutant medullary thyroid cancer; 75 mg, phase I, RECIST 1.1).
